Assay results pooled from the literature.
Each numbered part is a random draw from the data of one study; scales do not carry over between parts. Changes are numbered by the printed parent chain.

Block 1
Target: RNA binding protein fox-1 homolog 2, RRM domain, GST-SBP tag (RBFOX2, Homo sapiens, UniProt O43251-10, residues 100-194)
Technique: RNA Bind-n-Seq
Molecule type: RNA
Matrix: in vitro
Concentration: 365 nM
Notes: natural RNA segment, single round, ends assumed
Reference: no-protein control
Reading: higher = stronger binding
Constant ends, left off below: GGGAGUUCUACAGUCCGACGAUC … UGGAAUUCUCGGGUGCCAA
Target sequence (chain): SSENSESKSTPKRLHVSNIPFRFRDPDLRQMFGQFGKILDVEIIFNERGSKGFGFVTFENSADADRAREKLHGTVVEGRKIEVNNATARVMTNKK
`CUUUGGAUUAGAAAAGGCUUAUGUUAGCAACCUCAGAGACUUGAGCCCUGCUAAGUGACUGACCACUGUUUAGAAUGUCCAGAAUCUGAUGUCCAUCUGUCCCUGUGUCU`: “RBNS enrichment (R)” 0.704.
Under “RBNS enrichment (R)”, `UUGACAACUGUUUACCAUUGUGUUUAGGUUAUAUUCUAUAAAUACUCUUUAUAUGCAUAUAUAUGGCUAUAAAUAUAAAUUUUGUAUUACUGGUACCAAAAACACUUUUU` is recorded as 0.38.
Under “RBNS enrichment (R)”, `GACCACCCCCACGUUCAGAAAUCAGCUGGCCAAGUGACUCCAUUUGACUUGCAAACCAGCCUUUUCUAAUAGGCUAAUAUUGCUGAGGCCUUAAAGGAAAUGGACAAAAA` is recorded as 0.37.
Under “RBNS enrichment (R)”, `CUCCUUUUCUAAACCACCUCUGGGACUCAGCUCCCCCCGCCAAAAAAAAUGGGUCUCCUUCUGGGCUCCAGGAUUGUCUCCCCACUCCAGCAUCCCCAAACUGGUACUCC` is recorded as 2.3.
For `GUGUGUGGCUGUGGUUGUUUAUAAAUGAGACUAAGUCUGAUUUGCAUAAGGGCUUUCAAAAAUUAAGUCUGUCCAGUAGAGUGAUUUUGCUUUCAUUAUUACCAAGUCAA`, “RBNS enrichment (R)” read 0.384.
Under “RBNS enrichment (R)”, `AGAACUUUGGGAGGCCAAGGCAGGUGGAUCACUUGAGGUCAGGAGUUCGAGACUAGCCUGGCCAACAUGGUGAAACCCCAUCUCUACUAAAAAUACAACAGCCAGGUGUG` is recorded as 0.562.
`UGUUUUGAUAUCUGAGAGACAGAAAGGUCUCCCCAGGCUGGUCUCCAACUCCUGGCAAUCCUCCUGCCUCUGUUUCUCAGUUGCUCUGACAACAGGUGUGUACCACCACU` — result for “RBNS enrichment (R)”: 0.212.
For `GAAGAAGCACCGUGCGCAUACAGCCCACCGCAGAAGCAGCAGGUGCAGGGUGCGCGAAUGCGCAAGCGCCGGGCAGAGUCCCGUGCGGCUUCUGCUGUGGGACGUGGGCC`, “RBNS enrichment (R)” read 1.07.
`UUAGACUGCUCUCCUUAGGGAGGAGCCAAGAGGGAUUUCCAUGCACACUGCCCAUGGUGGGUUUAAGUUACUGAAGUUCGAUUACUCAGGCCUGAUGAAUUUUUAAGACU`: “RBNS enrichment (R)” 0.454.
`GCAAGCCCUACCUAAGGAACGGCUCUUGGAAGACUUCAUAAUGAUGCUGUCUCUGGCUGGGCCUUGGGGACACUUGCCACAUGGGUCCCAAAUGGCUGGGCAAGGGUGAC`: “RBNS enrichment (R)” 0.298.
Under “RBNS enrichment (R)”, `UCUGCAGGCCACACCAGUGGCCACAGGGGCCAUUUUGUCUUGUUGAUGCUGAAACCAUGCUGGACUGCCCCAGGCUAAGGCAGGACUGUCUGUGCAAGGCACUACAGCUA` is recorded as 0.294.
Under “RBNS enrichment (R)”, `AAGACCCCCAUCGCUACAAAAAAUACAAAAGUUAGCCAGGUACAGUAGUACACACCUGUAGUCCAAGCUACUUGGGAGGCUGAAGUGGGAGGAUCAUUUGUGCCCAGGUU` is recorded as 0.78.

Block 2
Target: CCND1, cyclin fold, Cln2 fusion (human)
Technique: yeast growth competition, sequencing
Matrix: yeast
Notes: weak parent motif
Reference: not given
Reading: higher = stronger binding
Starting sequence: WEE1 docking peptide (human); HKTFRKLRLFDTP
Under “normalised enrichment score”, `T3L` is recorded as -0.00926.
`K2G` — result for “normalised enrichment score”: 0.402.
`K2D` — result for “normalised enrichment score”: 0.303.
Under “normalised enrichment score”, `L9P` is recorded as -0.382.
For `L9M`, “normalised enrichment score” read -0.268.
`K2N` — result for “normalised enrichment score”: 0.624.
`D11T`: “normalised enrichment score” 0.0583.
Under “normalised enrichment score”, `F10R` is recorded as -0.361.
For `K6F`, “normalised enrichment score” read -0.971.
`F4M` — result for “normalised enrichment score”: 0.611.
`F4E`: “normalised enrichment score” -0.0232.
`F10G` — result for “normalised enrichment score”: -0.934.
Under “normalised enrichment score”, `P13L` is recorded as 0.0566.
`H1K` — result for “normalised enrichment score”: -0.466.
For `K6M`, “normalised enrichment score” read -0.254.
Under “normalised enrichment score”, `H1I` is recorded as 1.21.

Block 3
Target: Interferon regulatory factor 5, full length, phosphomimetic (IRF5, Homo sapiens, UniProt Q13568-2, residues 1-514, S451D/S453D/S456D/S462D)
Technique: protein-binding microarray
Molecule type: double-stranded DNA, one strand shown
Matrix: in vitro
Concentration: 940 nM top
Notes: 60-bp whole probe
Added: salmon DNA 0.4 mg/ml
Reference: random background probes
Reading: higher = stronger binding
Constant ends, left off below: GCCTAGCAC … GTCTTGATTCGCTTGACGCTGCTG
`TTAGGACTGCGGTATCGGTTAGTGCTA` — result for “fitted relative affinity”: 2.59 z-score.
Under “fitted relative affinity”, `TCAATTTTAGTTTTCATACTGTGCTAG` is recorded as 1.46 z-score.
`GACGGTCTCGGTCTCTGGACGTGCTAG` — result for “fitted relative affinity”: 3.36 z-score.
For `TTAGGACTGGGTCTCGGTTAGTGCTAG`, “fitted relative affinity” read 1.21 z-score.
Under “fitted relative affinity”, `TCATGTCTGGGATTTTGACTGTGCTAG` is recorded as -0.282 z-score.
`TTAGGTATCAGTTTCGGTTAGTGCTAG` — result for “fitted relative affinity”: 9.5 z-score.
Under “fitted relative affinity”, `GACGGTTTCCTTCTCCTGAAGTGCTAG` is recorded as 1.63 z-score.
`GTCGGACTGCTACTGCTGACGTGCTAG`: “fitted relative affinity” -0.546 z-score.
`TTAGATTTCGCGACTGGATTAGTGCTA`: “fitted relative affinity” 0.0534 z-score.
Under “fitted relative affinity”, `GACGGTATCCGGACTGGGGACGTGCTA` is recorded as -0.191 z-score.
Under “fitted relative affinity”, `TTCGATATCAGTTTCGATTAGTGCTAG` is recorded as 7.94 z-score.
For `TTAGGTTTCGACTTTCGATTAGTGCTA`, “fitted relative affinity” read 8.73 z-score.
For `GACGGTTTCCTACTGCTCACGTGCTAG`, “fitted relative affinity” read 0.675 z-score.
`GACGGTCTCGATTTCGGGACGTGCTAG` — result for “fitted relative affinity”: 2.93 z-score.
`CCATCTCAGCCTCCCCAAGGGTGCTAG`: “fitted relative affinity” 0.388 z-score.
For `TTAGATTTCAGTCTCGTTTAGTGCTAG`, “fitted relative affinity” read 3.06 z-score.
`TTAGAACTGAGTCTCGATTAGTGCTAG`: “fitted relative affinity” 2.78 z-score.
Under “fitted relative affinity”, `CACGGACTGGGGTTTCGGGACGTGCTA` is recorded as 1.33 z-score.

Block 4
Target: Ras GTPase-activating protein-binding protein 1, full length (G3BP1, Homo sapiens, UniProt Q13283)
Chain of UniProt Q13283 (whole entry, looked up): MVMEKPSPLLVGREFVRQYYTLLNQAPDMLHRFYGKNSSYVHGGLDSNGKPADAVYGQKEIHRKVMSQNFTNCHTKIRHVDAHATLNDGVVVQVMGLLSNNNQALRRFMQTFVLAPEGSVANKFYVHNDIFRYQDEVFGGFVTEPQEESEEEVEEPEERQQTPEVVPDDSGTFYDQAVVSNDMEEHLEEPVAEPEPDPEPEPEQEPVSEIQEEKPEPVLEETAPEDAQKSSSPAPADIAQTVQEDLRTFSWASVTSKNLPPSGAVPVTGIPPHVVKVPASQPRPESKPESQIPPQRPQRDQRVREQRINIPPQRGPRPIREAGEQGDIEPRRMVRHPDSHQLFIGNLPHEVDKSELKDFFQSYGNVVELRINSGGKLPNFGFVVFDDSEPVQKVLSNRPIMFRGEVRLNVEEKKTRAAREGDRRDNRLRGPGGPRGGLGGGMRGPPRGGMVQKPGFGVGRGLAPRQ
Technique: RNA Bind-n-Seq
Molecule type: RNA
Matrix: in vitro
Concentration: 200 nM
Notes: whole 134-nt RNA, ends assumed
Added: 150 mM KCl
Reference: input library
Reading: higher = stronger binding
Constant ends, left off below: GGGAGUUCUACAGUCCGACGAUC … UGGAAUUCUCGGGUGUCAAGG
The log2 enrichment of `CUGUGCUACACAUCGUAUGUACCGAAUCGGGCCCCCCCGGGGCCCCCCCGGGCCCCCCCGGGAAAGUAUUAUGUUACGCCGUUCGGAUCU` is reported as -1.41.
`GCAGGAAGUAAGAACAAAUGGAAAUGCUUCGGAUAGUGGCAGGGGUGGGGGUUGCUAAGGAAAGGGUGGGAUGGGAGUGGGUAAAGAGUU` gave a log2 enrichment of 1.56.
`CUCAAGUCCUGUGCUACACAUCGUAUGUACCGAAUCGGGCCCGGCCCGGCCCGGAAAGUAUUAUGUUACGCCGUUCGGAUCUGCACUUCC` has a log2 enrichment of -0.559.
For `GCAGGAAGUAAAAACAAAUGGAAAUGCUUCGGAUAGUGGCAGGGGUGGGGGUUGCUAAGGAAAGGGUGGGAUGGUAGUGGGUAAAGAGUU`, the log2 enrichment was 0.577.
For `AAGUCCUGUGCUACACAUCGUAUGUACCGAAUCGGGAAAAAGGGAGGGAAAAAGGGAAAGUAUUAUGUUACGCCGUUCGGAUCUGCACUU`, the log2 enrichment was 0.293.
`CACAGACAACACGCACCCACACAGACACAGAGGGAAGGGAAAGGGAUGGGGACAGGGUGCACAGCAGGGCGGGGUAGGACCCCAGCCCCU` gave a log2 enrichment of 1.75.
For `UAACUUUAGAGGAGGAUCUGAUGGAUGUGGCAGUGGACGUGGAUUUGGGGAUGGCUAUAAUGGGUAUGGAGGAGGACCUGGAGGUGGCAA`, the log2 enrichment was 0.38.
With `CCUGUGCUACACAUCGUAUGUACCGAAUCGGGGAAAAAAAGGGGUUUUUGGGGUUUGGGGAAAGUAUUAUGUUACGCCGUUCGGAUCUGC` the log2 enrichment was 0.231.
`UGGGAGGUGGAUUUUGUUUAUUUUUGUAGCUCAUUUCCAGGGGUGGGAAUUUUUUUUUAAUAUGUGUCAUGAAUAAAGUUGUUUUUGAAA` gave a log2 enrichment of 0.213.
`CUCAAGUCCUGUGCUACACAUCGUAUGUACCGAAUCGGGGUGGGUGGGGUGGGAAAGUAUUAUGUUACGCCGUUCGGAUCUGCACUUCCA` gave a log2 enrichment of 1.33.
With `CAAGUCCUGUGCUACACAUCGUAUGUACCGAAUCGGGCCGGGGCCGGGGCCGGGGAAAGUAUUAUGUUACGCCGUUCGGAUCUGCACUUC` the log2 enrichment was -0.496.
For `CCUGUGCUACACAUCGUAUGUACCGAAUCAAAUUUUUAAAUUUUUUUAAACCCCCCCAAAAAAGUAUUAUGUUACGCCGUUCGGAUCUGC`, the log2 enrichment was 0.0312.
With `GUCCUGUGCUACACAUCGUAUGUACCGAAUCGGGGCCCCCGGCCCCCGGGGCCCCCGGGAAAGUAUUAUGUUACGCCGUUCGGAUCUGCA` the log2 enrichment was -0.908.
`UCCUGUGCUACACAUCGUAUGUACCGAAUCGGGAAAGGGUUUUUUUGGGUUUUUUUGGGAAAGUAUUAUGUUACGCCGUUCGGAUCUGCA` has a log2 enrichment of -0.419.

Single results of other studies
The fold induction of `PhoQ, residues 284 288 289 292 302 303 SNGLAW` is reported as 12.5 (PhoP, residues 12 14 15 18 19 TQAIL (Escherichia coli, UniProt P23836); Sort-seq, item: YFP reporter; E. coli; PhoQ-PhoP variant library, added: 10 µM Mg2+; reference: high Mg2+ state, higher = stronger signaling).
